Assay results of several laboratories.
Protocols differ between the studies behind these lines. Several values in a cell are separate wells, animals, samples, runs or records. Numbers after ± are the reported error.

[Cl-].[Cl-].[Pt+2].[Ru+2].c1ccc(-c2nc3ccccc3nc2-c2ccccn2)nc1.c1cnc2c(c1)ccc1cccnc12.c1cnc2c(c1)ccc1cccnc12 — survival rate (Danio rerio; embryos; 60 µM, 0 h): 100%
O=NN1CCN(C2CCCC2)CC1 — revertant colonies per plate (Escherichia coli; mutagenicity, Ames plate incorporation; WP2 uvrA pKM101; 500 µg/plate, 3 d, without S9, methanol): 141 ± 9
O=[N+]([O-])c1ccc(N2CCC(NCCC(O)c3ccc(F)c4ccccc34)CC2)c(C(F)(F)F)c1 (stereo not shown) — survival (Salmonella typhimurium; SOS/umu test; TA1535/pSK1002, TGA medium; 1.53e-05 mg/mL, 4 h, with: 10% rat liver S9): 95%
CN(CC(C)(C)C)N=O — lowest mutagenic concentration (Escherichia coli; WP2uvrA pKM101, methanol; concentration not given, plate incorporation, no S9): 5000 µg/plate
[Cl-].[Cl-].[Pt+2].[Ru+2].c1ccc(-c2nccnc2-c2ccccn2)nc1.c1cnc2c(c1)ccc1cccnc12.c1cnc2c(c1)ccc1cccnc12 — hatching rate (Danio rerio; embryos; 15 µM, 48 h): 40 ± 4.1%
O=[N+]([O-])c1ccc(N2CCN(CCC(O)c3ccc(F)cc3)CC2)c(C(F)(F)F)c1 (stereo not shown) — survival (Salmonella typhimurium; SOS/umu test; TA1535/pSK1002; 0.008 mg/mL, 4 h, without S9, full range): 114%
CNC(=O)c1c(N(C)N=O)ncn1C — revertant colonies per plate (Escherichia coli; plate incorporation; WP2uvrA pKM101, water; 2500 µg/plate, without S9): 125 ± 18
OC(CCN1CC=C(c2ccc(F)cc2)CC1)c1ccc(F)c2ccccc12 (stereo not shown) — survival (Salmonella typhimurium; SOS/umu test; TA1535/pSK1002; 0.004 mg/mL, 4 h, without S9, lower range): 128%
COCCN(CCOC)N=O — revertant colonies per plate (Escherichia coli; mutagenicity, Ames plate incorporation; WP2 uvrA pKM101; 2500 µg/plate, 3 d, without S9, methanol): 134 ± 5
Cc1cc(C(=O)NC(C)(C)COc2cccc3c2C(N)=NS(=O)(=O)N3)cc(C)n1 — revertant ratio (Salmonella typhimurium; Ames test, confirmatory; TA100; 100 µg/plate; reference: solvent control): 0.9
CC(C)N(N=O)C(C)C — revertant colonies per plate (Escherichia coli; mutagenicity, Ames plate incorporation; WP2 uvrA pKM101; 500 µg/plate, without S9, methanol): 178 ± 9
Fc1ccc(C2=CCNCC2)cc1 — induction factor (Salmonella typhimurium; genotoxicity, SOS/umu test; TA1535/pSK1002; 0.004 mg/mL, 4 h, with S9, full range): 1.1
CC(=O)N1CCC(C(=O)N2CCN3C(=O)c4cc(-c5ccccc5)ccc4NC(=O)C3C2)CC1 (stereo not shown) — fold increase in revertants (Salmonella typhimurium; TA98; 5.0 µg/plate, with: rat liver S9; reference: vehicle): 0.8
CC(C)C[C@H](NC(=O)[C@H](Cc1c[nH]cn1)NC(=O)[C@H](Cc1c[nH]cn1)NC(=O)[C@H](Cc1ccc(O)cc1)NC(=O)[C@@H](N)CS)C(=O)N[C@H](C(=O)N[C@@H](CC(C)C)C(=O)N[C@H](C(=O)N[C@H](C(=O)NCC(=O)NCC(=O)N[C@@H](CO)C(=O)O)C(C)C)[C@@H](C)O)C(C)C — body weight (Epstein-Barr virus; B-NDG humanized mouse, EBV-infected; 20 mg/kg, day 42): 23 g and 21.9 g and 21.6 g
Cc1c(Cl)c(=O)oc2cc(OCCCC[Se]C#N)ccc12 — embryonic lethality (Caenorhabditis elegans; N2 Bristol, NGM with E. coli OP50; 100 µM, 24 h): 34.3%
COc1cccc(-c2n[nH]c(SCc3ccccn3)n2)c1OC — revertant colonies per plate (Salmonella typhimurium; Ames test, plate incorporation; TA1537; 0.50 mg/plate, without S9): 10

Excerpt of the above:
Fc1ccc(C2=CCNCC2)cc1 — induction factor (Salmonella typhimurium; genotoxicity, SOS/umu test; TA1535/pSK1002; 0.004 mg/mL, 4 h, with S9, full range): 1.1
